# Assay results gathered from unrelated publications.
# Each line is one published result; not all experiments were run side by side.
# Cell line: MDA-MB-231
Structure (SMILES),test,setting,how to read,quantity,value
C#CCOCC1=C(C(=O)OCC)C(c2cccc(Cl)c2)N2C(=N1)Sc1ccccc12 (centres unmarked),MTT,"100 µM, 48 h",,viability,48%
NC1CCCCC1N.O=C1[O][Pt]([O]C(=O)c2ccc(P(c3ccccc3)c3ccccc3)cc2)([O]C(=O)c2ccc(P(c3ccccc3)c3ccccc3)cc2)[O]C1=O.[Cl][Au].[Cl][Au],annexin V/PI flow cytometry,"IC50, 72 h",,early apoptotic cells increase,55%
CC(C)c1c(O)c(O)c2c(c1O)C(=O)C(O)=C1C(C)(C)CCCC12C (centres unmarked),"cell growth or viability, SRB",48 h,,GI50,46.9 µM
CC(N)C(O)CCCCCCCCCCCCCCC(=O)CCCCCCCC(O)C(C)N (centres unmarked),"cytotoxicity, resazurin",,baseline: MCF-12A over MDA-MB-231,selectivity index,1
CC=C(C)C(=O)OC1C(O)C2OC(COC(=O)CCCCCCCCCC(CCCCC)OC3OC(C)C(OC(C)=O)C(O)C3O2)C1OC(=O)C=Cc1ccccc1 (centres unmarked),,,baseline: IC50 MCF-10A over IC50 MDA-MB-231,selectivity index,1.91
CCC(=O)CCC[C@H](C)C[C@H](NC(=O)[C@@H]1C[C@H](C)CN1C(=O)/C=C/[C@@H](C)CC)C(=O)N[C@H](C(=O)NC(C)(C)C(=O)N[C@@H](CC(C)C)C(=O)N[C@@H](CC(C)C)C(=O)NC(C)(C)C(=O)NC(C)(C)C(=O)NCCC(=O)N[C@@H](C)CN(C)C)[C@H](O)C(C)C,"cell growth or viability, SRB",48 h,,GI50,> 0.1 µM
CC[C@H](C)[C@@H]([C@@H](CC(=O)N1CCC[C@H]1[C@H](OC)[C@@H](C)C(=O)N[C@H](C)[C@@H](O)c1ccccc1)OC)N(C)C(=O)[C@@H](NC(=O)[C@H](C(C)C)N(C)C(=O)CCSSC[C@H](NC(=O)[C@@H](NC(=O)CNC(=O)[C@H](CCC(=O)O)NC(=O)[C@H](CC(=O)O)NC(=O)[C@H](C)NC(=O)[C@H](CC(=O)O)NC(=O)[C@@H](NC(=O)[C@H](CC(C)C)NC(=O)[C@H](CC(C)C)NC(=O)[C@H](C)NC(=O)[C@H](CC(C)C)NC(=O)[C@H](CC(=O)O)NC(=O)[C@H](CC(C)C)NC(=O)[C@H](CC(C)C)NC(=O)[C@H](CC(C)C)NC(=O)[C@H](CC(C)C)NC(=O)[C@@H]1CCCN1C(=O)[C@@H](NC(=O)[C@@H](NC(=O)[C@H](Cc1ccccc1)NC(=O)[C@H](CC(C)C)NC(=O)[C@H](Cc1c[nH]c2ccccc12)NC(=O)[C@H](CC(=O)O)NC(=O)[C@H](C)NC(=O)[C@H](Cc1ccc(O)cc1)NC(=O)[C@H](CCCNC(=N)N)NC(=O)[C@H](C)NC(=O)[C@H](Cc1c[nH]c2ccccc12)NC(=O)[C@H](Cc1ccc(O)cc1)NC(=O)[C@@H](NC(=O)[C@@H]1CCCN1C(=O)[C@H](CC(N)=O)NC(=O)[C@H](CCC(N)=O)NC(=O)[C@H](CCC(=O)O)NC(=O)[C@H](C)NC(=O)[C@H](C)N)[C@@H](C)CC)[C@@H](C)O)[C@@H](C)O)C(C)C)[C@@H](C)O)C(=O)NCC(=O)O)C(C)C,,"1.25 µM, 2 h",,cell killing,100%
CC(C)C(C)C=CC(C)C1CCC2C1(C)CCC1C23C=CC2(CC(OC(=O)CCCCC4SCC5NC(=O)NC54)CCC12C)OO3 (centres unmarked),"cell growth or viability, ATP luminescence",,,EC50,10 µM
CN[C@@H](C)C(=O)N[C@H]1CN(C(=O)Cc2ccccc2)CC[C@H]2CC[C@@H](C(=O)NCc3ccc(C(F)(F)F)cc3)N2C1=O,"TNFα-dependent cell killing, trypan blue","1 µM, 48 h, added: TNFα-blocking antibody 2 µg/mL",,cell death,inhibited
O=C(O)c1ccc([PH]([Au][Cl])(c2ccccc2)c2ccccc2)cc1,annexin V/PI flow cytometry,"IC50, 72 h",,early apoptotic cells increase,62%
Cc1ccc(C(C)C)cc1.O=C(N=P(c1ccccc1)(c1ccccc1)c1ccccc1)c1ccccn1.[Cl-].[Cl][Ru+],"western blot, measured: p53","IC20, 6 h and 24 h",,protein level,no effect
COC(=O)C1CCCN1C(=O)C(Cc1ccccc1)N(C)C(=O)CC(O)C(CC(C)C)NC(=O)C(CC(C)C)N(C)C(=O)C(CC(C)C)NC(=O)C(O)C(C)C (centres unmarked),"RNA-seq, measured: death receptor 3 mRNA","40 µM, 6 h, added: TRAIL 25 ng/mL",baseline: solvent control,log2 fold change,2.4
N=C(N)NCCC[C@H](NC(=O)[C@H](CCCNC(=N)N)NC(=O)[C@@H]1CCCN1C(=O)[C@H](CCCNC(=N)N)NC(=O)[C@H](CCCNC(=N)N)NC(=O)[C@H](CCCNC(=N)N)NC(=O)[C@H](Cc1c[nH]c2ccccc12)NC(=O)[C@H](CCCNC(=N)N)NC(=O)[C@H](CCCNC(=N)N)NC(=O)[C@H](CCCNC(=N)N)NC(=O)[C@H](CCCNC(=N)N)NC(=O)[C@H](CCCNC(=N)N)NC(=O)[C@H](Cc1c[nH]c2ccccc12)NC(=O)[C@H](CCCNC(=N)N)NC(=O)[C@H](CCCNC(=N)N)NC(=O)[C@H](Cc1ccc(O)cc1)NC(=O)[C@H](CCCNC(=N)N)NC(=O)[C@H](CCCNC(=N)N)NC(=O)[C@H](CCCNC(=N)N)NC(=O)[C@@H](N)Cc1c[nH]c2ccccc12)C(N)=O,,"1.0, 5.2, 20.0 µM, 30 min, 37 °C, outcome no effect",,zeta potential change,no effect
CCC(=O)C[C@@H](O)C[C@@H](C)C[C@H](NC(=O)[C@@H]1C[C@H](C)CN1C(=O)/C=C/[C@@H](C)CC)C(=O)N[C@H](C(=O)NC(C)(C)C(=O)N[C@@H](CC(C)C)C(=O)N[C@@H](CC(C)C)C(=O)NC(C)(C)C(=O)NC(C)(C)C(=O)NCCC(=O)N[C@@H](C)CN(C)C)[C@H](O)C(C)C,"cell growth or viability, SRB",48 h,,GI50,> 0.1 µM
CCOC(=O)C1=C(COCc2cn(CCN3C(=O)C(=O)c4cc(Cl)ccc43)nn2)N=C2Sc3ccccc3N2C1c1cccc(Cl)c1 (centres unmarked),MTT,"100 µM, 48 h",,viability,~58%
C[C@@H](N)[C@H](O)CCCCCCCC(=O)CCCCCCCCCCCCCC[C@@H](O[C@@H]1O[C@H](CO)[C@H](O)[C@H](O)[C@H]1O)[C@H](N)CO,,,baseline: IC50 MCF-12A over IC50 MDA-MB-231,selectivity ratio,6.5
CCCC[C@H](O)C[C@@H](C)C[C@H](NC(=O)[C@@H]1C[C@H](C)CN1C(=O)/C=C/[C@@H](C)CC)C(=O)N[C@H](C(=O)NC(C)(C)C(=O)N[C@@H](CC(C)C)C(=O)N[C@@H](CC(C)C)C(=O)NC(C)(C)C(=O)NC(C)(C)C(=O)NCCC(=O)N[C@@H](C)CNC)[C@H](O)C(C)C,"cell growth or viability, SRB",48 h,,GI50,> 0.1 µM

# Repeated from above:
Structure (SMILES),test,setting,how to read,quantity,value
CCOC(=O)C1=C(COCc2cn(CCN3C(=O)C(=O)c4cc(Cl)ccc43)nn2)N=C2Sc3ccccc3N2C1c1cccc(Cl)c1 (centres unmarked),MTT,"100 µM, 48 h",,viability,~58%
